# Assay results from different studies.
# A part holds a random share of what one study measured. Substitutions count along the parent as printed.

# Set 1
# Target: ABI1, truncated, D143A, DHFR fusion (Arabidopsis thaliana)
# Method: DHFR PCA, deep sequencing
# Sample: yeast
# Setting: methotrexate growth selection, single substitutions
# With: (+)-ABA 0.032 µM
# Reference: wild-type fitted maximum
# Direction: higher = stronger binding
# Parent: PYL1, truncated, DHFR fusion (Arabidopsis thaliana); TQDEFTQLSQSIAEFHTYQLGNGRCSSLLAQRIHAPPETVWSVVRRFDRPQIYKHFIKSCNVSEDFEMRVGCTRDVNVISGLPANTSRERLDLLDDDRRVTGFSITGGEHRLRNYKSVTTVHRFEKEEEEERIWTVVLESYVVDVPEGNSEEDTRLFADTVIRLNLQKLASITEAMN
Change,relative binding score [%]
R111F,13.7
H34L,20.4
F56L,-3.47
F15G,-1.46
R98M,6.62
Q10V,6.74
F103C,-1.87
A13T,17.1
G21L,0.637
S117N,-0.435
M176F,-4.72
A13N,24.4
N114E,-7.16
Q7C,18.8
T101K,-0.813
Q2S,25.8
T101G,-5.18
L93Y,13

# Set 2
# Target: Fragile X messenger ribonucleoprotein 1, C-terminal low-complexity region (Fmr1, Mus musculus, UniProt P35922)
# Method: RNA Bind-n-Seq
# Form: RNA
# Sample: in vitro
# Concentration: 200 nM
# Setting: whole 134-nt RNA, ends assumed
# With: 150 mM LiCl
# Reference: input library
# Direction: higher = stronger binding
# Each molecule: 7-deaza-guanosine replaces G
# Shared flanks, not repeated: GGGAGUUCUACAGUCCGACGAUC … UGGAAUUCUCGGGUGUCAAGG
Oligonucleotide,log2 enrichment
CCUCAAGUCCUGUGCUACACAUCGUAUGUACCGAAUCGGCCGGCCGGGCCGGAAAGUAUUAUGUUACGCCGUUCGGAUCUGCACUUCCAG,0.419
GCAGGAAGUAAAAACAAAUGGAAAUGCUUCGGAUAGUGGCAGGGGUGGGGGUUGCUAAGGAAAGGGUGGGAUGGGAGUGGAAAAAGAGUU,1.37
CACAGACAACACGCACCCACACAGACACAGAGGGAAAGGGUUGGGAUGGGGACAGGGUGCACAGCAGGGCGGGGUAGGACCCCAGCCCCU,-0.885
UAGUCACCUACUGCCACCUUCGAAAAACACGGAGAGCACCUACCCAGAGGAGAAGGUAGAUUUGGAGUAAGCCGCCGUCGACAUAAUUCC,0.538
CAAGUCCUGUGCUACACAUCGUAUGUACCGAAUCGGAAAAAGGUUUUUGGUUUGGAAAGUAUUAUGUUACGCCGUUCGGAUCUGCACUUC,-2.95
UUUUUCCAGAGCUCACAACGACCUGGGGCUGAGGACAAUGUCCUCAAUGAGAUCGUGAGUAUCUUGCAGCCCACCCAGGUCCCUGAGCAG,-2.18
GCAGGAAGUAAAAACAAAUGGAAAUGCUUCAGAUAGUGGCAGGGGUGGGGGUUGCUAAGGAAAGGGUGGGAUGGGAGUGGGUAAAGAGUU,1.39
AAGUCCUGUGCUACACAUCGUAUGUACCGAAUCGGGUUUUGGGUUUUGGGUUUUGGAAAGUAUUAUGUUACGCCGUUCGGAUCUGCACUU,-1.71

# Set 3
# Target: RING finger protein unkempt homolog, zinc fingers 1-6, GST-SBP tag (UNK, Homo sapiens, UniProt Q9C0B0, residues 30-357)
# Method: RNA Bind-n-Seq
# Form: RNA
# Sample: in vitro
# Concentration: not given
# Setting: RNA with constant flanks, human and mouse sites, ends assumed
# Reference: input RNA pool
# Direction: higher = stronger binding
# Shared flanks, not repeated: GGGAGUUCUACAGUCCGACGAUC … CAACAGAGGAUUGAGCAUCA
# Target sequence (chain): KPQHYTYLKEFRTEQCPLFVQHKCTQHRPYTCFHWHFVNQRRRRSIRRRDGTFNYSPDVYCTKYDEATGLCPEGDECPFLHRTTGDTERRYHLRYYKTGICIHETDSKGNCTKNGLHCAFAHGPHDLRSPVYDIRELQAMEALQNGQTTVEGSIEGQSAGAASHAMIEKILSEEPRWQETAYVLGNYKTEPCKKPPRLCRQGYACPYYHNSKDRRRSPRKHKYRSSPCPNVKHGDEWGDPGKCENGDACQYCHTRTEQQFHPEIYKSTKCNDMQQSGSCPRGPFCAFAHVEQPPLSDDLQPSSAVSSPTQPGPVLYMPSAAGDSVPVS
Oligonucleotide,bound/input enrichment
UUACUUACUUAAUUUCUGGAGUUCGGGCCUCUGGGAUAGGCCCCAGACUGGGCCGGAAUGUUAGUGAAGGUUUUAUUGUGCCCGGUUGGAGGAUAAUGUUCUUUGUGUACUUUUUGUGGG,0.487 ratio
AAUAGUAUGGAUGUAGCAGCAGGUGCAGCAUCUGGUGCAAAAUCAAUGUGGACAGAACAUAAAUCACCUGAUGGAAGGACUUAUUAUUACAAUACUGAAACAAAACAGUCUACCUGGGAA,0.322 ratio
CUGAGGAAAGCCCAGGCCCAGAGCAUCCUGGAAGUCCUGAAGAUAACUCAGCACUGUGCAGAAUCCCUUGGGCAGCCCCACUGCUUCCAUCCACCUUUCAUACUUUUCCUGUUGGAACUU,0.175 ratio
AUUUGGGGGGAGAUGACUUUGAAUUUUGUUUGAAAUGCUUCAGUUGUCAUUUUGUCAUUGCAUUUCAAAUAGCUCAUGACCCUUUUCUUGUGGUCACUUUGGCACACCAUAGUAGCCCAC,0.337 ratio
UAGACAAAGGCUGCUGCUUUCAGCCUUCUCCAAGGGAGAGCCUGGCUGGCUAACAGAGGGAGCCUGAGUCAGUCACAUCUGGCAGCUGGCAGCAAGCUCUUCAUCCCUCCACAGUGAGGA,0.0642 ratio
GGUGCUUAUAAUUAUCCUUUCACUUGGAACACACCCUCUGCUCCCCCUGGCUAUAACAUUGCUGUCAAACCAGAUCAGAUCCAGUACACUGAGCUGUCCAAUGCUAAGAUUGCCUACAAG,0.178 ratio
AGCAGUUCUGCUCCACCACUAGAACGACGUAGUUUCAUUGGAAAUUCAGAUAUUCAGUCUUUGGAUAACUACAGUACUGCUUCAUCUCAUUCUGGUGGUCCACCUCAGCCUUCUGCCUUU,0.0875 ratio
UGUAUCUACACUGCAGUGAUGGUGCGAAGGGUGAUCCUGGCCCAAGGAGAUAACAAGGUCGAUGACAGAGACUAUUAUGGCAACAAACGACUGGAAUUGGCAGGACAGCUCUUAUCUCUU,0.203 ratio

# Set 4
# Target: CCND1, cyclin fold, Cln2 fusion (human)
# Method: yeast growth competition, sequencing
# Sample: yeast
# Setting: strong parent motif
# Reference: not given
# Direction: higher = stronger binding
# Parent: PKN2 docking peptide (human); VSAVQKLDFSDTM
Change,normalised enrichment score
F9Q,-0.00131
V4L,0.673
D11M,1.43
M13S,1.91
S2W,1.31
M13Q,2.62
S2P,1.62
A3D,-0.0514
S10I,1.62
A3G,0.315
D11A,1.64
S2E,0.218
V4S,0.508
V1K,1.93
A3T,0.617
L7S,-0.178
V4T,0.641

# For quick reference, copied from above (set 1):
Change,relative binding score [%]
Q10V,6.74
F103C,-1.87
A13T,17.1
